Measurements of several laboratories.
Protocols differ between the studies behind these lines. Values joined by “and” are separate records of one study, mostly repeats; a detail may differ. ± gives the spread as reported. ≈ marks a conversion by molar mass, not a printed value.

Structure (SMILES) | target or system | test | system | setting | how to read | measurement | result
COc1cc(CCC[P+](c2ccccc2)(c2ccccc2)c2ccccc2)c(OC)c2c1OCO2.[I-] | SR | SRB |  |  |  | GI50 | -5.96 log M
O=C1NC(=O)C(C2C3=C(CCCC3=O)Oc3ccc([N+](=O)[O-])cc32)C(=O)N1 (stereo not drawn) | mouse preadipocytes | qPCR, refers to: Pref-1 |  | IC20, 14 days, adipogenic induction | reference: untreated cells | mRNA level | decreased
Nc1ccn(C[C@@H](CO)OCP(=O)(O)O)c(=O)n1 | Fowlpox virus | viral infection | CEF | 200 µM | reference: untreated | infection | 62.3% and 46.1% and 45.3%
COc1ccc(-n2nc(C(C)=O)s/c2=N\N=C(/C)c2ccc(NC(C)=O)cc2)cc1 | HepG2 |  |  | 0.312 µM |  | viability | 14%
C#CCN(C)[C@H](C)Cc1ccccc1 |  | passive avoidance, acquisition | APP/PS1 mice | oral, 10 mg/kg, 672 h, 4 weeks dosing |  | step-through latency | 17.8 ± 4.12 s
O=C(NC1CCCCCCC1)c1cc(-c2ccc(F)cc2)c[nH]1 | Vero |  |  | 48 h |  | IC50 | 36.8 µg/mL
CS(=O)(=O)Nc1ncn(-c2cc(F)c(COc3ccc(OS(=O)(=O)F)cc3)c(F)c2)n1 | Mycobacterium tuberculosis | MABA | H37Rv |  |  | MIC | 0.042 µM (≈ 0.0201 µg/mL)
CC[C@H](C)[C@@H]1NC(=O)[C@@H]2CCCN2C(=O)[C@H](CC(C)C)NC(=O)[C@H](CC(C)C)NC(=O)CNC(=O)[C@@H](NC(=O)[C@@H](NC(=O)[C@H](CC(=O)O)NC(=O)CNC(=O)[C@@H](NC(=O)[C@H](C)NC(=O)CNC(=O)[C@H](CCCCN)NC(=O)[C@H](CC(C)C)NC(=O)[C@H](CC(C)C)NC(=O)[C@H](CCCCN)NC(=O)CNC(=O)[C@@H](NC(=O)[C@@H](N)CC(C)C)C(C)C)C(C)C)C(C)C)CSSC[C@@H](C(=O)O)NC1=O |  | RNA-seq, refers to: Fam19a3 | mouse, traumatic brain injury model, frontal cortex and hippocampus | dose not given | reference: TBI alone | log2 fold change | -2.57
C[C@H](CCC(=O)NCCS(=O)(=O)O)[C@H]1CC[C@H]2[C@@H]3[C@H](O)C[C@@H]4C[C@H](O)CC[C@]4(C)[C@H]3C[C@H](O)[C@]12C | Plasmodium falciparum |  | 3D7 |  |  | IC50 | 6.31 µM
COCCn1c2nc(=O)n(-c3ccccc3)c(=O)c-2nc2ccccc21 | Dengue virus 2 | viral replication |  |  |  | EC50 | 530 nM
Fc1ccc([C@@H]2CCNC[C@H]2COc2ccc3c(c2)OCO3)cc1 | Plasmodium falciparum |  | D10 |  |  | IC50 | 10 µM
COc1cc(F)ccc1-c1c[nH]c(C(=O)NC2CCCCCCC2)c1 | Vero |  |  | 48 h |  | IC50 | > 64 µg/mL
CCCCC1(CCCC)CN(c2ccccc2)c2cc(SC)c(OCC(=O)N[C@@H](C(=O)NCC(=O)O)c3ccccc3)cc2S(=O)(=O)C1 |  | refers to: LDL cholesterol | human, serum | 10 mg once daily, day 13 |  | serum LDL-C | 90.6 mg/dL
C=C1CC[C@@]2(O)[C@H]3Cc4ccc(O)c5c4[C@@]2(CCN3CC2CC2)[C@H]1O5 | H+/organic cation antiporter | cell uptake | hCMEC/D3 |  |  | Vmax | 699 pmol/min/mg protein
COc1c(C)c2c(c(O)c1C/C=C(\C)CCC(=O)O)C(=O)OC2 | uterus cancer cell lines | cell proliferation |  | average over lines |  | IC50 | 0.708 µM
OCCN1CCN(CC/C=C2/c3ccccc3Sc3ccc(C(F)(F)F)cc32)CC1 | Plasmodium falciparum |  | D10 |  |  | IC50 | 7.94 µM
Nc1ncnc2c1ncn2[C@@H]1O[C@@H]2COP(=O)(O)O[C@H]3[C@@H](O)[C@H](n4cnc5c(=O)[nH]cnc54)O[C@@H]3COP(=O)(O)O[C@H]2[C@H]1O | HFF-1 | RNA sequencing Reactome analysis, refers to: Reactome R-HSA-5693538 homology directed repair |  | added: West Nile virus infection | reference: West Nile virus infected cells, upregulated pathway | pathway fold enrichment | 3.84

Structure (SMILES) | target or system | test | system | setting | how to read | measurement | result
Nc1ncc(-c2nc(N3CCOCC3)nc(N3CCOCC3)n2)c(C(F)F)n1 | LS174T |  |  | 72 h |  | GI50 | 135 nM
C[C@H]1O[C@@H](O[C@H]2CC[C@@]3(C)[C@@H](CC[C@]4(C)[C@@H]3C=C[C@]35OC[C@@]6(CCC(C)(C)C[C@H]63)[C@@H](O)C[C@]54C)[C@]2(C)CO)[C@H](O)[C@@H](O[C@@H]2O[C@H](CO)[C@@H](O)[C@H](O)[C@H]2O)[C@H]1O |  |  | Mus musculus, pair-fed, AAV8-TBG-SIRT1 shRNA hepatic SIRT1 knockdown, plasma | oral, high dose, 5 h |  | total cholesterol | 2.6 mM and 2.77 mM and 2.59 mM and 2.48 mM and 2.29 mM
COc1c(CCC[P+](c2ccccc2)(c2ccccc2)c2ccccc2)cc2c(c1OC)OCO2.[I-] | A498 | SRB |  |  |  | TGI | -5.48 log M
COc1ccccc1NC(=O)Nc1nc(-c2cccnc2)nc2ccccc12 | Plasmodium falciparum |  | 7G8 |  |  | IC50 | 2.51 µM
C[C@H](C(=O)N[C@H]1COc2ccccc2[C@@H]1S(C)(=O)=O)c1ccc(F)cc1 | L-type calcium channel, rat, Dihydropyridine site | binding |  | 10 µM, Eurofins selectivity panel |  | inhibition | 3%
O=C(O)C1=CC(=C(c2ccc(O)c(C(=O)O)c2)c2ccc(O)c(C(=O)O)c2)C=CC1=O | Plasmodium falciparum |  | 3D7 |  |  | IC50 | 7.94 µM
C[C@]1(CO)Cc2ncn(-c3ccc(C#N)c(Cl)c3)c2C(=O)O1 |  | aldosterone synthesis, inhibitor, refers to: potassium | healthy Japanese adults, urine | 40 mg, 0-24 h after first dose, multiple rising dose |  | urinary excretion | 32.3 mmol
C#CCN(C)[C@H](C)Cc1ccccc1 |  | footprint test | MPTP-induced Parkinson's disease mouse model | 10 mg/kg, mean of three trials |  | corridor crossing time | 7.52 s and 5.62 s and 4.27 s and 6.52 s and 7.98 s and 5.33 s and 5.93 s
COc1cc2nc(N3CCN(C(=O)C4COc5ccccc5O4)CC3)nc(N)c2cc1OC (stereo not drawn) | Plasmodium falciparum |  | HB3 |  |  | IC50 | 2.51 µM
CCN1CCN(C(=O)N[C@@H](C(=O)N[C@@H]2C(=O)N3[C@@H]2SC(C)(C)[C@@H]3C(=O)O)c2ccccc2)C(=O)C1=O | PBP3 Streptococcus pneumoniae | Bocillin-FL competition | live Streptococcus pneumoniae cells | 30 min, added: Bocillin-FL 600 nM |  | kinact/KI | 24000 ± 3500 M⁻¹ s⁻¹
c1ccc(C(NCCNC(c2ccccc2)c2ccccc2)c2ccccc2)cc1 | GABAB receptor, rat | binding |  | 10 µM, Eurofins selectivity panel |  | inhibition | -2%
O=C(NC1CCCCCCC1)c1cc(-c2ccc(Cl)cc2)c[nH]1 | Vero |  |  | 48 h |  | IC50 | > 64 µg/mL
COc1ccccc1OCC(O)CN1CCN(CC(=O)Nc2c(C)cccc2C)CC1 (stereo not drawn) | Plasmodium falciparum |  | 7G8 |  |  | IC50 | 5.01 µM
COc1ccc2c(c1)[nH]c1c(C)nccc12 | DU-145 | bisulfite pyrosequencing, refers to: RASSF1A promoter CpG site 19 |  | concentration not given | reference: vehicle | methylation reduction | 2.9%
CC1=C(C(=O)O)N2C(=O)[C@@H](NC(=O)[C@H](N)c3ccccc3)[C@H]2SC1 | PBP1b Streptococcus pneumoniae | Bocillin-FL competition | live Streptococcus pneumoniae cells | 30 min, added: Bocillin-FL 600 nM |  | kinact/KI | 220 ± 83 M⁻¹ s⁻¹
CC[C@]1(O)C[C@H]2CN(CCc3c([nH]c4ccccc34)[C@@](C(=O)OC)(c3cc4c(cc3OC)N(C=O)[C@H]3[C@@](O)(C(=O)OC)[C@H](OC(C)=O)[C@]5(CC)C=CCN6CC[C@]43[C@@H]65)C2)C1 | Plasmodium falciparum |  | HB3 |  |  | IC50 | 1.58 µM

Some of these lines once more:
Structure (SMILES) | target or system | test | system | setting | how to read | measurement | result
C[C@]1(CO)Cc2ncn(-c3ccc(C#N)c(Cl)c3)c2C(=O)O1 |  | aldosterone synthesis, inhibitor, refers to: potassium | healthy Japanese adults, urine | 40 mg, 0-24 h after first dose, multiple rising dose |  | urinary excretion | 32.3 mmol
COCCn1c2nc(=O)n(-c3ccccc3)c(=O)c-2nc2ccccc21 | Dengue virus 2 | viral replication |  |  |  | EC50 | 530 nM
CC[C@]1(O)C[C@H]2CN(CCc3c([nH]c4ccccc34)[C@@](C(=O)OC)(c3cc4c(cc3OC)N(C=O)[C@H]3[C@@](O)(C(=O)OC)[C@H](OC(C)=O)[C@]5(CC)C=CCN6CC[C@]43[C@@H]65)C2)C1 | Plasmodium falciparum |  | HB3 |  |  | IC50 | 1.58 µM
